Published values pooled from the literature.
Each line is one published result; not all experiments were run side by side.
Cell line: MDA-MB-231

`C=CC(OC(C)=O)c1cc(OC)c(OC(C)=O)c(OC)c1` (stereo not shown): “integrin beta1 decrease” 93.3% (Western blot; concentration not given, 24 h).
For `CC1(C)C(=CC=C2CCCC(C=CC3=[N+](CCCCCC(=O)O)c4ccccc4C3(C)C)=C2c2ccccc2)N(CCCCCC(=O)O)c2ccccc21`, cellular uptake read “increased” (serum-free medium; 20 µM, added: 1 mM DMOG hypoxia; reference: no DMOG).
Under “early apoptotic cells”, `CC1OC2OC3C4=C(OC3(C)C12O)C(=O)c1c(O)cccc1C4=O` (stereo not shown) is recorded as 60.6% (annexin V/PI flow cytometry; 8 µg/mL, 48 h).
The inhibition of `FC1(F)Oc2ccc(Cc3c[nH]c4ncc(C(F)(F)F)cc34)cc2O1` is reported as 20% (cell growth or viability; 10 µM, 72 h).
Under “cleaved PARP level”, `C=C[C@H](OC(C)=O)c1ccc(OC(C)=O)cc1` is recorded as 7.8 fold (Western blot; IC50, 24 h; reference: untreated).
`COc1ccc(C=CC(=O)c2cccc(O)c2)cc1` — result for “S phase cells”: 30.5% (flow cytometry PI; 50 µM, 48 h).
`C=CC(OC(C)=O)c1ccc(OC(C)=O)c(OC)c1` (stereo not shown): “Bcl-2 protein decrease” 40 to 50% (Western blot; IC50, 24 h; reference: untreated).
For `CCCCCCCCCCCCCCCOC(=O)/C=C/c1cc(O)c(O)c(OC)c1`, “early apoptotic cells” read 39.7% (AO-PI flow cytometry; IC50, 24 h).
With `Cc1ccc(C(C)C)cc1.O=C(N=P(c1ccccc1)(c1ccccc1)c1ccccc1)c1ccccn1.[Cl-].[Cl][Ru+]` the invasion reduction was 85.2% (Transwell Geltrex invasion; IC20, 24 h; reference: untreated).
`CCC(C(=O)O)C1CCC(C)C(C(C)C(O)C(C)C(=O)C(CC)C2OC3(C=CC(=O)C4(CCC(C)(C5CCC(O)(CC)C(C)O5)O4)O3)C(C)CC2C)O1` (stereo not shown) has a combination index of 1.7 (MTT; added: benzhydroxamic acid 35.5 µM).

A few entries again:
With `Cc1ccc(C(C)C)cc1.O=C(N=P(c1ccccc1)(c1ccccc1)c1ccccc1)c1ccccn1.[Cl-].[Cl][Ru+]` the invasion reduction was 85.2% (Transwell Geltrex invasion; IC20, 24 h; reference: untreated).
